Experimental data from different studies.
Compare with care: the assays were run in different laboratories. Numbers after ± are the reported error.
Oprk1: Kappa-type opioid receptor (Oprk1, Rattus norvegicus, UniProt P34975)
Sequence of UniProt P34975 (whole entry, looked up): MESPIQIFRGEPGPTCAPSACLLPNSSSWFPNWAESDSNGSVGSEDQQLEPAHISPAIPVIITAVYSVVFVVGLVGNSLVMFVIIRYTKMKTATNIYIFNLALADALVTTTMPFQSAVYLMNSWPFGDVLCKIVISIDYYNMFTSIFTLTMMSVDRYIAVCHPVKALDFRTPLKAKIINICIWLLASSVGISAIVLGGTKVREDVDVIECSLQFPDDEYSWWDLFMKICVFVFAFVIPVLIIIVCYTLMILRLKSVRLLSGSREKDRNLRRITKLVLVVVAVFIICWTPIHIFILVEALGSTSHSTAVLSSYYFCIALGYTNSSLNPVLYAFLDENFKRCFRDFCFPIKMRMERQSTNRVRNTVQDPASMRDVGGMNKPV
Sequence of UniProt O88457 (whole entry, looked up): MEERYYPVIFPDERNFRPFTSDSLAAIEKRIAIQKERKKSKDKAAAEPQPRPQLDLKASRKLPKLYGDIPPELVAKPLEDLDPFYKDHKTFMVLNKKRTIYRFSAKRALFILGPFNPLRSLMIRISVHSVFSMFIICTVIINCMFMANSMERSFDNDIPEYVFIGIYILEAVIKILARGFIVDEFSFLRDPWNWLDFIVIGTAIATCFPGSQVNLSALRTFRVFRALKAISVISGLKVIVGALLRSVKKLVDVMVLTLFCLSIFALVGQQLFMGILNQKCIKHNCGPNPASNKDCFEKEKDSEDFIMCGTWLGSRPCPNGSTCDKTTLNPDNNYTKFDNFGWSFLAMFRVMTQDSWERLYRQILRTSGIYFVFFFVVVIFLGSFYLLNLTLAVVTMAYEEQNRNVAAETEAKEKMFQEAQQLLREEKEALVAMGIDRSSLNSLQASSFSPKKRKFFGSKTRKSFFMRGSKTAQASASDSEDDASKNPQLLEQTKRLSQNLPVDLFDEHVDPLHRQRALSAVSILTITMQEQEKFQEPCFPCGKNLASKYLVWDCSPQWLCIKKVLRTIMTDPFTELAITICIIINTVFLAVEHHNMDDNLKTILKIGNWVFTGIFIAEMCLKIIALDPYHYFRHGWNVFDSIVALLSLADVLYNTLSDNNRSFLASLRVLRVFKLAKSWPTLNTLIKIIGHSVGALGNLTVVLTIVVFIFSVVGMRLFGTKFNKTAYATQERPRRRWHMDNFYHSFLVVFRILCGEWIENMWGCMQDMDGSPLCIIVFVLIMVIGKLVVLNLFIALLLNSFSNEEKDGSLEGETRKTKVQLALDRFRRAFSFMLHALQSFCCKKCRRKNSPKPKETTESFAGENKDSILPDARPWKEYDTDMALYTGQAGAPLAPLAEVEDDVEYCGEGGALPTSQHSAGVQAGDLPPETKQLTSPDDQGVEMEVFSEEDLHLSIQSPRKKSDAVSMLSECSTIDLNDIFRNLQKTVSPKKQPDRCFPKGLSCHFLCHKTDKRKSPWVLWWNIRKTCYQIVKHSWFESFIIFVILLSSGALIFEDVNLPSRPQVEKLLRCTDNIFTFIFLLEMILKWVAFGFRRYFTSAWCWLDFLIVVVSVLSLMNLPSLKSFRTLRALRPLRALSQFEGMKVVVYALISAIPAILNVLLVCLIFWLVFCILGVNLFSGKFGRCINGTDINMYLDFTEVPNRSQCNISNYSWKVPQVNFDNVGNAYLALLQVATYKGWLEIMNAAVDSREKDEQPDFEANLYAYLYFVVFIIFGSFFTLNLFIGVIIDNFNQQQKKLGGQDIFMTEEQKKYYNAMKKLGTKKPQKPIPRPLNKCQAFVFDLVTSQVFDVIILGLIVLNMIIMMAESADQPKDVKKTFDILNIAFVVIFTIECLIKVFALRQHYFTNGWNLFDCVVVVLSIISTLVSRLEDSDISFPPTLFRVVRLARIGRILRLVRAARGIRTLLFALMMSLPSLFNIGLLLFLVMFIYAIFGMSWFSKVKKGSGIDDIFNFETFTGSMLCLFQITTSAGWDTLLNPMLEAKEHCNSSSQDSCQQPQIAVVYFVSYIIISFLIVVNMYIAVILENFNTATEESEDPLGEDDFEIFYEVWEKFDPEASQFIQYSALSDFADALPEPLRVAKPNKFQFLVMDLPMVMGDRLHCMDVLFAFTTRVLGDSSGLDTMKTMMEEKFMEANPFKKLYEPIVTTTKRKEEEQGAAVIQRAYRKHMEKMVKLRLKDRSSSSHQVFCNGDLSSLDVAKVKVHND
Sequence of UniProt Q13131 (whole entry, looked up): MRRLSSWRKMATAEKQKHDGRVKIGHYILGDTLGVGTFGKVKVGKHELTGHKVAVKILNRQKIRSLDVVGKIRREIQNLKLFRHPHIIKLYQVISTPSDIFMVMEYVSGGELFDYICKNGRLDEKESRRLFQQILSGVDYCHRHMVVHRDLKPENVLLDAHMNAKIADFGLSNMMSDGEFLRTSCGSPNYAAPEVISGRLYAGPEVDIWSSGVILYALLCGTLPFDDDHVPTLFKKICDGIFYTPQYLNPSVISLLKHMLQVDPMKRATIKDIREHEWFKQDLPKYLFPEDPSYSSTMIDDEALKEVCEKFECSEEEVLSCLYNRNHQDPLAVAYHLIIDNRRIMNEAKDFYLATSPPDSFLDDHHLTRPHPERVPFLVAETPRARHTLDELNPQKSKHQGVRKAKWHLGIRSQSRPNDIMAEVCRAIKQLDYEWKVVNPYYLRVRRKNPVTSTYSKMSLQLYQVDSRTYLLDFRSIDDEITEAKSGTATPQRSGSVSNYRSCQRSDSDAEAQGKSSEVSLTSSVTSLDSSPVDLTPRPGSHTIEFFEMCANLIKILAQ
Sequence of UniProt Q9Y478 (whole entry, looked up): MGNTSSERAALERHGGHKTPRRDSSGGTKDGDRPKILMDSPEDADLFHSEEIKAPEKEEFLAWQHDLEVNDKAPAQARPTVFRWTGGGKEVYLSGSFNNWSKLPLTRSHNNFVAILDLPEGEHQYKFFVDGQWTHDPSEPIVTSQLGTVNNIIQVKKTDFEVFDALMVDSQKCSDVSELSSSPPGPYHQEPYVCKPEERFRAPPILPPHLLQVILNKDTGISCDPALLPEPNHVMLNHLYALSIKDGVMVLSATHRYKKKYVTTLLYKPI
Sequence of UniProt P56817 (whole entry, looked up): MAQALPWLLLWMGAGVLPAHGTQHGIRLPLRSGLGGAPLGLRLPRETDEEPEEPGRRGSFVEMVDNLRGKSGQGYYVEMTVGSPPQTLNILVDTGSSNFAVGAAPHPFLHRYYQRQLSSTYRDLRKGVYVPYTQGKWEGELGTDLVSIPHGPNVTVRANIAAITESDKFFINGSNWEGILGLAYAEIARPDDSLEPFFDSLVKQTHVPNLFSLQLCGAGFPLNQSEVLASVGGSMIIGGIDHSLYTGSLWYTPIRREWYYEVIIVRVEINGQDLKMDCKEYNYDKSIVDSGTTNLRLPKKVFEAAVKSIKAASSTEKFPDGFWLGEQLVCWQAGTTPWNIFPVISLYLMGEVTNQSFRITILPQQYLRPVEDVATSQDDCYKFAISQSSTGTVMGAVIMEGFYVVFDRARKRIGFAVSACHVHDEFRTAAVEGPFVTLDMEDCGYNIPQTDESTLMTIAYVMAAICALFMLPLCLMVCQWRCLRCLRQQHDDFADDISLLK
Sequence of UniProt Q8R146 (whole entry, looked up): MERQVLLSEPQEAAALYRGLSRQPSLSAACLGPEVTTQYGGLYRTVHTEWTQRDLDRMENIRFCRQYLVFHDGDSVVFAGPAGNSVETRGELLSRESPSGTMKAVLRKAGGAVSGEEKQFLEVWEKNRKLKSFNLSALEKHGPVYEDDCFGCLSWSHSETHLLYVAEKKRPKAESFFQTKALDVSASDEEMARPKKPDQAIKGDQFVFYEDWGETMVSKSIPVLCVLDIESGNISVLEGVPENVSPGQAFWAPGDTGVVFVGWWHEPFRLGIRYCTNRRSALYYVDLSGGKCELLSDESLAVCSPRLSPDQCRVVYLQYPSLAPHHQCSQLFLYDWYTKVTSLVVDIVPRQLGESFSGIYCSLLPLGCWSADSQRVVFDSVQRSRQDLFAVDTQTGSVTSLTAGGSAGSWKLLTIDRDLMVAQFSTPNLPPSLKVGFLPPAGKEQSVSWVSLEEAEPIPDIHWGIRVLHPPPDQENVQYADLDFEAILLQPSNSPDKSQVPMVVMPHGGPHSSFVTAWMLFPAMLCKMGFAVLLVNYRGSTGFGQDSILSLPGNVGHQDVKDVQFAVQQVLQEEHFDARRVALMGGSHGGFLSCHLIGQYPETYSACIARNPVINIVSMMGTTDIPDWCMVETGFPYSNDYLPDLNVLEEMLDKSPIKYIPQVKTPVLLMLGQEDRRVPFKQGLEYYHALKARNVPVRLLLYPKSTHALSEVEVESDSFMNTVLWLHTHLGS
Sequence of UniProt P24666 (whole entry, looked up): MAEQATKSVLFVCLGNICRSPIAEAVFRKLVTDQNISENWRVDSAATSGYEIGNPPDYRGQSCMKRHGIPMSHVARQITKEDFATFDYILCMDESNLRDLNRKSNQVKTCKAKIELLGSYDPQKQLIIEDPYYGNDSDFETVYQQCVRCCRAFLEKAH

The Stern-Volmer constant of `COc1ccc2cc1Oc1ccc(cc1)C[C@H]1c3cc(c(OC)cc3CC[N@+]1(C)CCc1c[nH]c3ccccc13)Oc1c(OC)c(OC)cc3c1[C@H](C2)[N@@+](C)(CCc1c[nH]c2ccccc12)CC3` is reported as 23200 M⁻¹ (poly(dA)·poly(dT) 18-bp dsDNA; DNA binding, ethidium bromide displacement; phosphate buffer, 10% DMSO; pH 7.2, 25 °C, dsDNA 10 µM, 10 mM NaCl, with: ethidium bromide 5 µM).
`C[C@@H]1NC(=O)[C@H](NC(=O)[C@H](Cc2ccccc2)NC(=O)CNC(=O)CNC(=O)[C@H](Cc2ccc(O)cc2)NCc2ccccc2)CC(=O)NC[C@@H](C(=O)N[C@@H](CCCNC(=N)N)C(=O)N2CCC[C@H]2C(=O)N[C@@H](CCCCN)C(N)=O)NC(=O)[C@H](CCCNC(=N)N)NC1=O` — result for “affinity fold decrease”: 18 fold (Oprk1; binding; relative to: zyklophin).
`O=C(N=P12CN3CN(CN(C3)C1)C2)c1ccccn1.[Cl][Pt][Cl]` has a saturating equivalents of 6 equivalents (Albumin (ALB, Homo sapiens, UniProt P02768); binding, circular dichroism; 20 h, pH 7.39, 37 °C).
`CCOC(=O)/C=C/[C@H](C[C@@H]1CCNC1=O)NC(=O)[C@H](Cc1ccccc1)NC(=O)[C@H](COC(C)(C)C)NC(=O)OCc1ccccc1` — result for “FLuc reporter expression”: “increased” (Genome polyprotein, 3C protease (Coxsackievirus B3, UniProt P03313); protease activity, cell-based reporter; COS-1; 50 µM).
`N[C@@H](CCC(=O)N[C@@H](CS[Se]Cc1ccc(C(=O)Nc2cc(C(F)(F)F)c(Br)c(C(F)(F)F)c2)cc1)C(=O)NCC(=O)O)C(=O)O` gave a selectivity ratio of 81 (ACP1 (Homo sapiens, UniProt P24666); enzyme activity; with: pNPP, GSH 1 mM; relative to: IC50 ACP1 over mPTPA).
`COCCN1COc2c(cc3c4c(c(=O)oc3c2C)CCC4)C1` has a propidium displacement of 0% (ache (Electrophorus electricus, UniProt O42275); peripheral site binding; 0.24 µM).
`CC1CN1c1cc(O)c2nc(N)sc2c1` (centres unmarked) gave a covalent engagement of 33% (Histone-lysine N-methyltransferase NSD3, SET domain (NSD3, Homo sapiens, UniProt Q9BZ95); mass spectrometry; NSD3 SET domain 1 µM; 10 µM, 18 h, 32 °C).
`Cn1cc(C(=O)Nc2ccccn2)c2ccccc21` gave a Hill slope of 1.44 (Genome polyprotein, 3C protease (rhinovirus B14, UniProt P03303); protease activity, SAMDI-MS).
`CC(=O)N(C)[C@@H](Cc1ccccc1)C(=O)N[C@@H](Cc1ccccc1)C(=O)N[C@@H](Cc1ccc2ccccc2c1)C(=O)N[C@@H](CCCNC(=N)N)C(=O)N[C@@H](CC(C)C)C(=O)N[C@@H](CCCNC(=N)N)C(=O)N[C@@H](CCCNC(=N)N)C(=O)N[C@H](C)C(=O)N[C@@H](CCCNC(=N)N)C(=O)N1CCC[C@H]1C(=O)N[C@@H](CCCCN)C(N)=O` — result for “adenylyl cyclase activity”: 101 ± 11% (Oprk1; agonist; CHO cells; 10 µM; relative to: dynorphin A(1-13) amide).
With `CC(C)C[C@H](NC(=O)CNC(=O)[C@@H](NC(=O)[C@H](CO)NC(=O)[C@H](CCCCN)NC(=O)[C@H](CC(C)C)NC(=O)C1(NC(=O)[C@H](CCC(=O)O)NC(=O)[C@H](CC(C)C)NC(=O)[C@@H](N)C(C)C)CC(C)(C)N([O])C(C)(C)C1)C(C)C)C(=O)N[C@@H](Cc1ccccc1)C(=O)O` the apparent lifetime was about 6 ms (Rhodopsin, photoactivated (Meta II) (RHO, Bos taurus, UniProt P02699); binding to R*, time-resolved EPR; 250 and 50 µM, pH 6.8, with: 250 µM rhodopsin, laser flash).
`CC[C@H](C)[C@H](NC(=O)[C@H](CCC(N)=O)NC(=O)[C@H](CC(C)C)NC(=O)[C@@H](NC(=O)CNC(=O)[C@H](Cc1ccc(O)cc1)NC(=O)[C@H](CC(=O)O)NC(=O)[C@@H](NC(=O)[C@H](CO)NC(=O)CNC(=O)[C@H](CC(=O)O)NC(=O)[C@@H](NC(=O)[C@H](CC(N)=O)NC(=O)[C@H](CCCNC(=N)N)NC(=O)[C@H](CC(N)=O)NC(=O)[C@@H](NC(=O)[C@H](C)NC(=O)[C@H](CCC(N)=O)NC(=O)[C@@H](NC(=O)[C@H](CC(N)=O)NC(=O)[C@H](Cc1ccccc1)NC(=O)[C@H](CC(N)=O)NC(=O)[C@H](CO)NC(=O)[C@H](CCC(=O)O)NC(=O)[C@H](Cc1ccccc1)NC(=O)[C@H](CCCCN)NC(=O)[C@H](C)NC(=O)[C@H](C)NC(=O)[C@H](CO)NC(=O)[C@@H](NC(=O)[C@H](Cc1c[nH]c2ccccc12)NC(=O)[C@H](CC(N)=O)NC(=O)CNC(=O)[C@H](CC(C)C)NC(=O)[C@H](CO)NC(=O)[C@H](Cc1ccc(O)cc1)NC(=O)CNC(=O)[C@H](CCCNC(=N)N)NC(=O)[C@H](Cc1ccc(O)cc1)NC(=O)[C@H](CC(N)=O)NC(=O)[C@@H](N)CC(=O)O)C(C)C)[C@@H](C)O)[C@@H](C)O)[C@@H](C)O)[C@@H](C)O)[C@@H](C)CC)C(=O)O` — result for “maximal assembly rate constant”: 5.3 ± 0.2 min⁻¹ (Periplasmic serine endoprotease DegP (degP, Escherichia coli, UniProt P0C0V0, C83S/C95S/N322C); FRET).
For `CSCC[C@H](N)C(=O)N[C@@H](C)C(=O)N[C@@H](C)C(=O)N[C@H](C(=O)N[C@@H](C)C(=O)NCC(=O)N[C@@H](CC(C)C)C(=O)N[C@@H](Cc1ccc(O)cc1)C(=O)NCC(=O)N[C@@H](CC(C)C)C(=O)NCC(=O)N[C@@H](CCCCN)C(=O)N[C@@H](CCCCN)C(=O)N[C@@H](CCCNC(=N)N)C(=O)N[C@@H](CCC(N)=O)C(=O)N[C@@H](Cc1c[nH]cn1)C(=O)N[C@@H](CCCNC(=N)N)C(=O)N[C@@H](CCCCN)C(=O)N[C@@H](CCCCN)C(=O)N[C@@H](CCC(N)=O)C(N)=O)C(C)C`, “slow component current” read 202 pA (Sh (Drosophila melanogaster, UniProt P08510, A391C/C301S/C308S/del6-46/T449V); 0.5 µM, after MTSES modification).
With `CC(C(=O)O)N(c1ccccc1)S(C)(=O)=O` (centres unmarked) the ligand efficiency was 0.24 (Beta-lactamase (ampC, Escherichia coli K-12, UniProt P00811)).
`COC(=O)N(C)[C@@H](Cc1ccccc1)C(=O)N[C@@H](Cc1ccccc1)C(=O)N[C@@H](Cc1ccc2ccccc2c1)C(=O)N[C@@H](CCCNC(=N)N)C(=O)N[C@@H](CC(C)C)C(=O)N[C@@H](CCCNC(=N)N)C(=O)N[C@@H](CCCNC(=N)N)C(=O)N[C@H](C)C(=O)N[C@@H](CCCNC(=N)N)C(=O)N1CCC[C@H]1C(=O)N[C@@H](CCCCN)C(N)=O` — result for “adenylyl cyclase activity”: 109 ± 10% (Oprk1; agonist; CHO cells; 10 µM; relative to: dynorphin A(1-13) amide).
Under “Kd fold increase”, `C=Cc1cc(OC)c2c(c1)c(=O)oc1c2cc(OC)c2c(O)ccc([C@@H]3O[C@H](C)[C@H](O)[C@@](C)(O)[C@H]3O)c21` is recorded as 14.2 fold (2,3,4,5-tetrahydropyridine-2,6-dicarboxylate N-acetyltransferase (dapH, Staphylococcus aureus, UniProt A6QGU8, A219Q); binding, microscale thermophoresis; relative to: A219Q mutant over wild type).
The inactivation V1/2 of `CCN(Cc1ccccc1)C(=O)CCc1nc(CN2CCN(C(=O)Cc3ccc(OC)c(OC)c3)CC2)no1` is reported as -101 mV (Sodium channel protein type 11 subunit alpha (Scn11a, Rattus norvegicus, UniProt O88457); sodium current, whole-cell patch clamp; rat DRG neurons; 10 µM).
For `O=C(/C=C/c1ccccc1)c1ccc(N2CCNCC2)cc1`, the remaining activity was 90.6% (Beta-secretase 1 (BACE1, Homo sapiens, UniProt P56817); enzyme activity, inhibitor, fluorescence; 10 µM).
The EC150 of `CS(C)(=O)=Nc1ccc(-c2ccc(-c3nc4cc(O[C@@H]5CO[C@H]6[C@@H]5OC[C@H]6O)[nH]c4cc3F)cc2)cc1` is reported as 0.398 nM (PRKAA1/PRKAB1, with gamma3 (Homo sapiens, UniProt Q13131+Q9Y478); enzyme activity, activator; 60 min, 50% above basal activity, with: ATP 50 µM).
`O=C(O)COc1ccc(Cl)cc1` has a remaining current of 0.89 (Chloride channel protein (Torpedo marmorata, UniProt P21564, C212S); chloride current, inhibitor, inside-out patch clamp; 20 mM, 140 mV, unit not given; relative to: control current).
Under IC50, `NC(CNC(CNC(CC(=O)O)C(=O)O)C(=O)O)C(=O)O` (centres unmarked) is recorded as “no effect” (KPC-2; enzyme activity, inhibitor; enzyme 5 nM, with: nitrocefin 30 µM).
The Ki′ of `CCCCCCCCCCCCCCCc1ccc(C(Br)P(=O)(O)O)cc1` (racemic) is reported as 2970 nM (Autotaxin (ENPP2, Homo sapiens, UniProt Q13822); enzyme substrate complex).
`Cc1nc(=O)c(C[n+]2csc(CCO)c2C)c[nH]1` gave a ΔH of -4.3 ± 1.43 kcal/mol (nicotinamide riboside transporter PnuT (Shewanella woodyi, UniProt B1KPL9); isothermal titration calorimetry; 25 °C).
With `CCN1CCCC1CNC(=O)c1cc(Br)cc(OC)c1O[11CH3]` (centres unmarked) the koff was 0.000267 s⁻¹ (dopamine D2/D3 receptors; PET, multiple injection; rhesus monkey, brain).
Under relaxivity r1, `O=C([O-])CN1CCN(CC(=O)NCCN(Cc2ccccn2)Cc2ccccn2)CCN(CC(=O)[O-])CCN(CC(=O)NCCN(Cc2ccccn2)Cc2ccccn2)CC1.[Gd+3]` is recorded as “increased” (Albumin, Zn(II)-bound (ALB, Homo sapiens, UniProt P02768); relaxometry; 323 K, with: Zn(II); relative to: 310 K).
`CC(C)[C@H]1CC[C@@H](N2CC[C@@](C)(c3cccc(O)c3)[C@@H](C)C2)CC1` gave an efficacy of 0% (OPRK1 (Homo sapiens, UniProt P41145); agonist).
Under “lowest dose for complete inhibition”, `CC(C)CC(O)(CC(C)C)c1cn(C(=O)N2CCCC2)nn1` is recorded as 0.4 mg/kg (Acylamino-acid-releasing enzyme (Apeh, Mus musculus, UniProt Q8R146); enzyme activity, inhibitor, competitive ABPP; mouse, brain and heart; intraperitoneal, 4 h).
`c1ccc2c(c1)Sc1ccccc1N2CC1CN2CCC1CC2` (centres unmarked) gave a Stern-Volmer constant of 5600 M⁻¹ (srtA (Staphylococcus aureus, UniProt Q2FV99); binding, fluorescence quenching).
`CC(CCC(=O)NC(CCC(=O)Nc1cccnc1)C(=O)O)C1CCC2C3C(O)CC4CC(O)CCC4(C)C3CCC12C` (centres unmarked) has a Jmax of 0.298 (SLC10A2 (Homo sapiens, UniProt Q12908); transport, substrate; ASBT-MDCK cells; unit not given; relative to: taurocholate Jmax).
`CC(=O)N[C@H]1[C@@H](OC[C@H](NC(=O)CNC(=O)[C@@H]2CCCN2C(=O)[C@H](C)NC(=O)[C@@H]2CCCN2C(=O)[C@@H](N)CCCNC(=N)N)C(=O)N[C@H](C(=O)N[C@@H](C)C(=O)N2CCC[C@H]2C(=O)N2CCC[C@H]2C(=O)N[C@@H](C)C(=O)N[C@@H](Cc2c[nH]cn2)C(=O)NCC(=O)O)[C@@H](C)O[C@H]2O[C@H](CO)[C@H](O)[C@H](O)[C@H]2NC(C)=O)O[C@H](CO)[C@H](O)[C@@H]1O` has a kd decrease of 4 fold (anti-MUC1 Fab 14 A wild type, murine; SPR; relative to: Glyco-T).
`CC(C)P(=[Se])(NP(=[Se])(C(C)C)C(C)C)C(C)C`: “number of binding sites” 0.72 ± 0.06 (Alpha-amylase (Bacillus subtilis, UniProt P00691); fluorescence quenching; concentration not given, 304 K).
Under Ki, `COC(=O)C1C(OC(c2ccc(Cl)cc2)c2ccc(Cl)cc2)CC2CCC1N2C` (single isomer, unassigned) is recorded as “inactive” (ADORA1 (Homo sapiens, UniProt P30542); binding, radioligand displacement; inactive if below 75% at 10000 nM, with: [3H]DPCPX).
`Cc1ccc(Oc2nc3cc(-c4ccc5c(ccn5C)c4)c(Cl)cc3[nH]2)cc1C(=O)O` gave a koff of 0.0062 ± 0.0012 s⁻¹ (PRKAA1/PRKAB1, phosphorylated; with gamma1 (Homo sapiens, UniProt Q13131+Q9Y478); binding, biolayer interferometry; α1β1γ1 complex).

For quick reference, copied from above:
`O=C(O)COc1ccc(Cl)cc1` has a remaining current of 0.89 (Chloride channel protein (Torpedo marmorata, UniProt P21564, C212S); chloride current, inhibitor, inside-out patch clamp; 20 mM, 140 mV, unit not given; relative to: control current).
Under IC50, `NC(CNC(CNC(CC(=O)O)C(=O)O)C(=O)O)C(=O)O` (centres unmarked) is recorded as “no effect” (KPC-2; enzyme activity, inhibitor; enzyme 5 nM, with: nitrocefin 30 µM).
